Assay results from different studies.
Protocols differ between the studies behind these lines. pIC50, pKd, pKi: −log10 of the molar value.
Target: Mitogen-activated protein kinase 14 (MAPK14, Homo sapiens, UniProt Q16539)
UniProt Q16539, sequence (whole entry, looked up): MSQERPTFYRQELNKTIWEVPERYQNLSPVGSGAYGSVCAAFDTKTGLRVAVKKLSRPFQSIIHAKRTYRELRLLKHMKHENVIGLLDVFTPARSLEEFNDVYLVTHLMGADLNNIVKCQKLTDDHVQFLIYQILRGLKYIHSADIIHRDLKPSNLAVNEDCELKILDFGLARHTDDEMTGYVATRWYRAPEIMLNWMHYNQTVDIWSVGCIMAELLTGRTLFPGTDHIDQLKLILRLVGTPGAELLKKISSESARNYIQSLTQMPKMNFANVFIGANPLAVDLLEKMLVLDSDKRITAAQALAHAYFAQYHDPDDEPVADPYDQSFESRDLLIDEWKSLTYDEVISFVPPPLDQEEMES

Compound	read-out	action	technique	notes	quantity	value
Cc1ccc(NC(=O)C(Cc2ccccc2)NC(=O)Cn2cnc(C(F)(F)F)c2)c(C)c1 (stereo not drawn)	enzyme activity	inhibitor	ELISA	–	pIC50	6.39
Cc1ccc([N+](=O)[O-])cc1S(=O)(=O)N(C)/N=C/c1cnc2ccc(Br)cn12	enzyme activity	inhibitor	ADP detection	–	pIC50	< 5.00
CCn1c(=O)c(Oc2ccc(F)cc2F)cc2cnc(NCCOC(C)C)nc21	enzyme activity	inhibitor	FRET	–	pIC50	7.60
COC(=O)C1(CCCCl)C=C(C(=O)OC(C)(C)C)C(=O)CC1 (stereo not drawn)	ligand displacement	–	FP	–	pKi	5.92
Cc1cc(NC(=O)c2cccc(-n3cc(NC(=O)Nc4ccc(Cl)cc4)cn3)c2)ccn1	enzyme activity	inhibitor	–	–	pIC50	< 5.00
Oc1cc(-c2ccccc2Cl)[nH]n1	binding	–	microscale thermophoresis	saturation not reached	pKd	2.94
COC(=O)C1(C)C=C(C(=O)O)C(=O)CC1 (stereo not drawn)	ligand displacement	–	FP	–	pKi	< 3.70
Cc1ccc(NC(=O)Nc2cnn(-c3cccc(C(=O)Nc4ccnc(C)c4)c3)c2)cc1	enzyme activity	inhibitor	–	–	pIC50	< 5.00
Nc1nnc(Nc2ccc(Cl)cc2)[nH]1	–	–	SPR	–	pKd	2.86
COC(=O)[C@@]1(Cc2ccccc2)C=C(C(=O)OC(C)(C)C)C(=O)CC1	ligand displacement	–	FP	–	pKi	6.10
Fc1ccc(-c2nc[nH]c2-c2ccnc(Nc3ccc(N4CCOCC4)cc3)c2)cc1	enzyme activity	inhibitor	ELISA	–	pIC50	7.68
CCOC(=O)C1(C)C=C(C(=O)OC)C(=O)CC1 (stereo not drawn)	ligand displacement	–	FP	–	pKi	5.07
Cc1cc(NC(=O)c2cccc(-n3cc(NC(=O)Nc4ccc(F)cc4)cn3)c2)ccn1	enzyme activity	inhibitor	–	–	pIC50	< 5.00
CN(C)c1ccc(C#CCOC(=O)[C@]2(C)C=C(C(=O)OC(C)(C)C)C(=O)CC2)cc1	ligand displacement	–	FP	–	pKi	5.51
N#Cc1ccc(Nc2n[nH]c(N)n2)cc1	binding	–	SPR	–	pKd	3.20

A few entries again:
Compound	read-out	action	technique	notes	quantity	value
CCOC(=O)C1(C)C=C(C(=O)OC)C(=O)CC1 (stereo not drawn)	ligand displacement	–	FP	–	pKi	5.07
COC(=O)C1(CCCCl)C=C(C(=O)OC(C)(C)C)C(=O)CC1 (stereo not drawn)	ligand displacement	–	FP	–	pKi	5.92
